Measured values of several laboratories.
Values joined by “and” are separate records of one study, mostly repeats; a detail may differ. ± gives the spread as reported.

Protein sequences, listed by entry. Tags and fused reporters are not part of them. Residues count along the entry.
UniProt P53779, 1-422 isoform 2: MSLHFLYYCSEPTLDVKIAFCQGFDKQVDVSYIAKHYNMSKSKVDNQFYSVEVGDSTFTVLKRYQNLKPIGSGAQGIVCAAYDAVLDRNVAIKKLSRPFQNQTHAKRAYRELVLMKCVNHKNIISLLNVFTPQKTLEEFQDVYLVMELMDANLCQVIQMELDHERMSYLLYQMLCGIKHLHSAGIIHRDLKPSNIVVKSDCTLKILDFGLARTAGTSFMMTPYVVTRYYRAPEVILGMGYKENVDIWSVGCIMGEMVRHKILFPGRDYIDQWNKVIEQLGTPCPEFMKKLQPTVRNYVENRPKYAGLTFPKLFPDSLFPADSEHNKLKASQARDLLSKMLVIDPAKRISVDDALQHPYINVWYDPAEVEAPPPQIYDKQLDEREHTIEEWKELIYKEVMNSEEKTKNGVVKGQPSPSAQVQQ

| SMILES | tested on | test | test system | setting | scale | quantity | result |
| --- | --- | --- | --- | --- | --- | --- | --- |
| COC(=O)[C@@H]1C(C=Nc2cncnc2NC(C)=O)=Cc2cc3c(cc2[C@H]1c1cc(OC)c(OC)c(OC)c1)OCO3 | Leishmania infantum | Alamar Blue | HepG2 |  | baseline: CC50 HepG2 over EC50 amastigotes | selectivity index | 0.1 |
| Cc1nn(C)c2c(C(C(=O)O)N3CC(OCCCCc4ccc5c(n4)NCCC5)C3)cccc12 (stereo not shown) |  |  | rat, Sugen/hypoxia model, distal pulmonary arteries |  | baseline: vehicle or IgG | FAK phosphorylation | decreased |
| COC(=O)[C@@]1(C)C=C(C(=O)Nc2cccc(C(=O)NC34CC(Nc5nccc(-c6cccnc6)n5)(C3)C4)c2)C(=O)CC1 | Mitogen-activated protein kinase 10 (MAPK10, Homo sapiens, UniProt P53779) | enzyme activity, inhibitor |  | 2.788e-05 µM |  | remaining activity | 1.01 fraction of control |
| CC(=NN=c1[nH]c2cc(F)c(F)cc2n1C)c1ccc(F)cn1 |  | measured: cleaved caspase-3 | MDA-MB-231 xenograft, SCID mice | 10 mg/kg/day |  | apoptotic cells | 4 to 5% |
| C[C@@H]1CN(C2CCC2)CC[C@H](O[C@H]2[C@@H](O)C[C@H](O[C@H]3[C@@H](O)C[C@H](O[C@H]4CC[C@@]5(C)[C@H](CC[C@@H]6[C@@H]5C[C@@H](O)[C@]5(C)[C@@H](C7=CC(=O)OC7)CC[C@]65O)C4)O[C@@H]3C)O[C@@H]2C)O1 |  |  | rat hippocampal slices | 10 µM, ~14 min, trace 2, added: electrical stimulation | baseline: pre-drug control | K+ decay time constant | 57 ± 8% |
| CCCCN(CCc1ccc(Cl)c(Cl)c1)C[C@H](O)COc1ccc(NS(C)(=O)=O)cc1 |  |  | mouse, transient MCAO | intraperitoneal, dose not given, 20 min before occlusion |  | infarct volume reduction | ≤ 50% |
| CCC1NC(=O)C(CCCNC(=N)N)NC(=O)C(C)(NC(=O)C(C)C)CCCCNC(=O)C(c2ccccc2)NC1=O (stereo not shown) |  | CellTiter-Glo | Hoxa9/Meis1 leukaemia cells, mouse | dose not given |  | cell growth | no effect |
| C=CC(=O)N1CCC(c2cc(Nc3cc4n(n3)CCOC4)c3ncnn3c2)C1 (single isomer, unassigned) | TMD8 | calcium flux, FLIPR |  | 4 h preincubation, added: anti-IgM |  | maximum inhibition | 14.4% |
| NC(=O)c1nn(CC(=O)N2[C@@H]3C[C@@H]3C[C@H]2C(=O)Nc2cccc(Br)n2)c2ccccc12 |  | complement MAC deposition | 50% human serum | added: zymosan |  | IC50 | 50 nM |
| O=C(O)c1cccc(-c2cc(=O)n3nc(-c4ccco4)c(C4CC4)c3[nH]2)c1 |  | DCPIP reduction | K562 cell lysate | 10 µM, 60 min |  | diaphorase activity | 0.0542 OD/min and 0.0538 OD/min and 0.0532 OD/min |
| CCOC(=O)C1=C(C)NC2=C(C(=O)CC(C)(C)C2)C1c1ccc(OCC(=O)NN=Cc2cccc(C=O)c2)cc1OCC(=O)NN=Cc1cccc(C=O)c1 (stereo not shown) | Salmonella enterica |  | ATCC 13311 | concentration not given, 24 h |  | inhibition zone diameter | 2.6 ± 0.2 mm |
| O=C(NNC(=S)Nc1cccc(C(F)(F)F)c1)c1cccn1-c1ccc(F)cc1 |  | measured: tau pS396/pS404 | rTg4510 mouse 4-month-old, cultured brain slices | dose not given |  | p-tau level | decreased |
| Cc1ncsc1-c1ccc([C@H](C)NC(=O)[C@@H]2C[C@@H](O)CN2C(=O)[C@@H](NC(=O)CCCCCCC(=O)N2CCN(C[C@]3(C)CCC(c4ccc(Cl)cc4)=C(CN4CCN(c5ccc(C(=O)NS(=O)(=O)c6ccc(N[C@H](CCN7CCOCC7)CSc7ccccc7)c(S(=O)(=O)C(F)(F)F)c6)cc5)CC4)C3)CC2)C(C)(C)C)cc1 |  |  | STAM mice NASH-HCC model, liver | day 150, treated days 45-150 |  | collagen deposition | decreased |

Some of these lines once more:
| SMILES | tested on | test | test system | setting | scale | quantity | result |
| --- | --- | --- | --- | --- | --- | --- | --- |
| NC(=O)c1nn(CC(=O)N2[C@@H]3C[C@@H]3C[C@H]2C(=O)Nc2cccc(Br)n2)c2ccccc12 |  | complement MAC deposition | 50% human serum | added: zymosan |  | IC50 | 50 nM |
| C=CC(=O)N1CCC(c2cc(Nc3cc4n(n3)CCOC4)c3ncnn3c2)C1 (single isomer, unassigned) | TMD8 | calcium flux, FLIPR |  | 4 h preincubation, added: anti-IgM |  | maximum inhibition | 14.4% |
